Published values collected from several papers.
Values joined by “and” are separate records of one study, mostly repeats; a detail may differ. ± marks the error that the study gave.
Cell line: HeLa

For O=C(Cc1ccc2ccccc2c1)N[C@H](Cc1ccc(OP(=O)(O)O)cc1)C(=O)N[C@H](Cc1ccccc1)C(=O)N[C@H](Cc1ccccc1)C(=O)N[C@H](Cc1ccc(OP(=O)(O)O)cc1)C(=O)O, the IC50 was over 483 µg/mL (cell growth or viability, MTT).
The IC50 of CC(C)C[C@H](NC(=O)[C@H](CCCCN)NC(=O)[C@H](CC(C)C)NC(=O)[C@H](CC(C)C)NC(=O)[C@H](CCCCN)NC(=O)[C@H](CCCCN)NC(=O)[C@H](CC(C)C)NC(=O)[C@H](CC(C)C)NC(=O)[C@H](CCCCN)NC(=O)[C@H](CC(C)C)NC(=O)[C@H](CC(C)C)NC(=O)[C@H](CCCCN)NC(=O)[C@H](CCCCN)NC(=O)[C@H](CC(C)C)NC(=O)[C@@H](N)CSSC[C@H](N)C(=O)N[C@@H](CC(C)C)C(=O)N[C@@H](CCC(=O)O)C(=O)N[C@@H](Cc1c[nH]cn1)C(=O)N[C@@H](CC(C)C)C(=O)N[C@@H](CC(C)C)C(=O)N[C@@H](CCC(=O)O)C(=O)N[C@@H](Cc1c[nH]cn1)C(=O)N[C@@H](CC(C)C)C(=O)N[C@@H](CCC(=O)O)C(=O)N[C@@H](Cc1c[nH]cn1)C(=O)N[C@@H](CC(C)C)C(=O)N[C@@H](CC(C)C)C(=O)N[C@@H](CCC(=O)O)C(=O)N[C@@H](Cc1c[nH]cn1)C(N)=O)C(N)=O is reported as over 100 µM (cell growth or viability, MTT; pH 7.4).
For Cc1nn(-c2ccccc2)c(O)c1C(c1ccccc1O)c1c(C)nn(-c2ccccc2)c1O, the IC50 was 35.4 µM (cell growth or viability, MTT; 48 h).
For CC(=O)N1CCC[C@H]1C(=O)N[C@@H](CC(C)C)C(=O)N[C@@H](Cc1c[n+](CCC(O)CO)cn1CCCCCCCCc1ccccc1)C(=O)N[C@@H](CO)C(=O)N[C@H](C(N)=O)[C@@H](C)OP(=O)([O-])O (stereo partly shown), the IC50 was about 90 µM (cell proliferation; 48 h).
For Cc1nn(-c2ccccc2)c(O)c1C(c1cccs1)c1c(C)nn(-c2ccccc2)c1O, the IC50 was 30.8 µM (cell growth or viability, MTT; 48 h).
C=C(CO)[C@H]1Cc2c(ccc3c2O[C@@H]2COc4cc(OC)c(OC)cc4[C@]2(O)C3=O)O1 gave an IC50 of 19.9 µM (cell growth or viability, MTT; 72 h).
With O=C(c1ccccc1O)c1[nH]c(Cl)c(Cl)c1-n1c(C(=O)c2ccccc2O)cc(Cl)c1Cl the IC50 was 4.2 µg/mL (cell growth or viability, resazurin; 24 h).
CC1OC(OC2CCC3(C)C(CCC4C3CCC3(C)C(C5=CC(=O)OC5)CCC43O)C2)C(O)C(O)C1OC1OC(CO)C(O)C(O)C1O (stereo not shown) has an IC50 of 0.03 µM (cell growth or viability, MTT; 48 h).
The IC50 of CC[C@H](C)[C@@H]1NC(=O)[C@H](Cc2c[nH]c3ccccc23)NC(=O)[C@H](C)NC(=O)[C@H](Cc2ccc(O)cc2)NC(=O)[C@H](CC(C)C)NC(=O)[C@H](Cc2c[nH]c3ccccc23)NC1=O is reported as 169 µg/mL (cell growth or viability, MTT; 48 h).
The IC50 of C[C@@H](N)[C@H](O)CCCCCCCC(=O)CCCCCCCCCCCCCC[C@@H](O[C@@H]1O[C@H](CO)[C@@H](O)[C@H](O)[C@H]1O)[C@@H](N)CO is reported as 24.9 µM (cell growth or viability).
C[C@H]1[C@H](OC(=O)CCC(=O)OCCc2ccc(O)cc2)O[C@@H]2O[C@@]3(C)CC[C@H]4[C@H](C)CC[C@@H]1[C@@]24OO3 has an IC50 of 2.66 µM (cell growth or viability, MTT).
CC(C)C[C@H](NC(=O)[C@H](CCCCN)NC(=O)[C@H](CC(C)C)NC(=O)[C@H](CC(C)C)NC(=O)[C@H](CCCCN)NC(=O)[C@H](CCCCN)NC(=O)[C@H](CC(C)C)NC(=O)[C@H](CC(C)C)NC(=O)[C@H](CCCCN)NC(=O)[C@H](CC(C)C)NC(=O)[C@H](CC(C)C)NC(=O)[C@H](CCCCN)NC(=O)[C@H](CCCCN)NC(=O)[C@H](CC(C)C)NC(=O)[C@@H](N)CSSC[C@H](N)C(=O)N[C@@H](CC(C)C)C(=O)N[C@@H](CCC(=O)O)C(=O)N[C@@H](CCC(=O)O)C(=O)N[C@@H](CC(C)C)C(=O)N[C@@H](CC(C)C)C(=O)N[C@@H](Cc1c[nH]cn1)C(=O)N[C@@H](Cc1c[nH]cn1)C(=O)N[C@@H](CC(C)C)C(=O)N[C@@H](CCC(=O)O)C(=O)N[C@@H](CCC(=O)O)C(=O)N[C@@H](CC(C)C)C(=O)N[C@@H](CC(C)C)C(=O)N[C@@H](Cc1c[nH]cn1)C(=O)N[C@@H](Cc1c[nH]cn1)C(N)=O)C(N)=O gave an IC50 of 10.2 µM (cell growth or viability, MTT; pH 6).
Cc1nn(-c2ccccc2)c(O)c1C(c1cccc([N+](=O)[O-])c1)c1c(C)nn(-c2ccccc2)c1O has an IC50 of 32.4 µM (cell growth or viability, MTT; 48 h).
For NC(=O)c1cccc2c3c([nH]c12)CCC(N)C3 (stereo not shown), the IC50 was 0.147 µM (cell growth or viability).
CC1=CC=c2ccc3c4c2[N]1[Re](=[C]=O)(=[C]=O)(=[C]=O)([C]#[N+]c1ccc(Cl)cc1)[N]4C(C)=CC=3.O=S(=O)([O-])C(F)(F)F has an IC50 of 9.3 µM (cell growth or viability, MTT; 48 h).
CC(C)C[C@H](NC(=O)[C@H](CCCCN)NC(=O)[C@H](CC(C)C)NC(=O)[C@H](CC(C)C)NC(=O)[C@H](CCCCN)NC(=O)[C@H](CCCCN)NC(=O)[C@H](CC(C)C)NC(=O)[C@H](CC(C)C)NC(=O)[C@H](CCCCN)NC(=O)[C@H](CC(C)C)NC(=O)[C@H](CC(C)C)NC(=O)[C@H](CCCCN)NC(=O)[C@H](CCCCN)NC(=O)[C@@H](N)CC(C)C)C(N)=O has an IC50 of 11.7 µM (cell growth or viability, MTT; pH 6).
The IC50 of CC[C@H](C)[C@H](NC(=O)[C@H](CCCCN)NC(=O)[C@H](CCCCN)NC(=O)[C@H](C)NC(=O)[C@H](CC(C)C)NC(=O)[C@H](C)NC(=O)[C@H](C)NC(=O)[C@H](CC(C)C)NC(=O)[C@H](C)NC(=O)[C@H](CCCCN)NC(=O)[C@H](CC(C)C)NC(=O)[C@H](CC(N)=O)NC(=O)[C@@H](NC(=O)[C@H](CCCCN)NC(=O)CNC(=O)[C@H](CC(C)C)NC(=O)[C@H](CC(C)C)NC(=O)[C@H](Cc1ccc(O)cc1)NC(=O)CNC(=O)[C@H](C)NC(=O)[C@H](CO)NC(=O)[C@H](CC(N)=O)NC(=O)[C@H](CC(C)C)NC(=O)[C@@H](NC(=O)[C@H](Cc1c[nH]c2ccccc12)NC(=O)CN)[C@@H](C)O)[C@@H](C)CC)C(=O)N[C@@H](CC(C)C)C(N)=O is reported as 1.3 µM (cytotoxicity).
With C[C@H]1O[C@@H](O[C@H]2CC[C@@]3(C)[C@H](CC[C@@H]4[C@@H]3C[C@@H](O)[C@]3(C)[C@@H](C5=CC(=O)OC5)[C@@H](O)C[C@]43O)C2)C[C@H](O)[C@@H]1O the IC50 was 0.64 µM (cell growth or viability, MTT; 48 h).
C#CCCCC[C@H](C)C[C@@H](C)C(=O)N(C)[C@@H](C)C(=O)N1CCC[C@H]1C(=O)N(C)[C@H](C(=O)N(C)[C@H](C(=O)OC)C(C)C)C(C)C gave an IC50 of 3 µM and ~3 µM (cell growth or viability, SRB).
CC(C)C[C@H](NC(=O)[C@H](CCCCN)NC(=O)[C@H](CC(C)C)NC(=O)[C@H](CC(C)C)NC(=O)[C@H](CCCCN)NC(=O)[C@H](CCCCN)NC(=O)[C@H](CC(C)C)NC(=O)[C@H](CC(C)C)NC(=O)[C@H](CCCCN)NC(=O)[C@H](CC(C)C)NC(=O)[C@H](CC(C)C)NC(=O)[C@H](CCCCN)NC(=O)[C@H](CCCCN)NC(=O)[C@H](CC(C)C)NC(=O)[C@@H](N)CSSC[C@H](N)C(=O)N[C@@H](CC(C)C)C(=O)N[C@@H](Cc1c[nH]cn1)C(=O)N[C@@H](CCC(=O)O)C(=O)N[C@@H](CC(C)C)C(=O)N[C@@H](CC(C)C)C(=O)N[C@@H](CCC(=O)O)C(=O)N[C@@H](Cc1c[nH]cn1)C(=O)N[C@@H](CC(C)C)C(=O)N[C@@H](Cc1c[nH]cn1)C(=O)N[C@@H](CCC(=O)O)C(=O)N[C@@H](CC(C)C)C(=O)N[C@@H](CC(C)C)C(=O)N[C@@H](CCC(=O)O)C(=O)N[C@@H](Cc1c[nH]cn1)C(N)=O)C(N)=O gave an IC50 of over 100 µM (cell growth or viability, MTT; pH 7.4).
With O=C(Cc1ccc2ccccc2c1)N[C@H](Cc1ccc(O)cc1)C(=O)N[C@H](Cc1ccccc1)C(=O)N[C@H](Cc1ccccc1)C(=O)N[C@H](Cc1ccc(O)cc1)C(=O)O the IC50 was over 500 µg/mL (cell growth or viability, MTT).
CC1=CC=c2ccc3c4c2[N]1[Re](=[C]=O)(=[C]=O)(=[C]=O)([C]#[N+]c1cc(C)cc(C)c1)[N]4C(C)=CC=3.O=S(=O)([O-])C(F)(F)F gave an IC50 of 6.8 µM (cell growth or viability, MTT; 48 h).
COC(=O)[C@H](C(C)C)N(C)C(=O)[C@H](C(C)C)N(C)C(=O)[C@@H]1CCCN1C(=O)[C@H](C)N(C)C(=O)OC(C)(C)C has an IC50 of 23 µM (cell growth or viability, SRB).
For CC1=C(I)C(C)=[N+]2C1=C(c1ccc(OCCn3cc(CNC(=O)CSC[C@H](NC(=O)c4ccc(-c5nnc(C)nn5)cc4)C(=O)N[C@H](CCCNC(=N)N)C(=O)N[C@@H](CC4CCCCC4)C(=O)N[C@H](CCCNC(=N)N)C(=O)N[C@@H](CC4CCCCC4)C(=O)N[C@H](CCCNC(=N)N)C(=O)N[C@@H](CC4CCCCC4)C(=O)N[C@H](CCCNC(=N)N)C(N)=O)nn3)cc1)c1c(C)c(I)c(C)n1[B-]2(F)F, the IC50 was 0.598 ± 0.037 µM (phototoxicity; 2 h plus 18 h, 2.5% FBS, together with: irradiation 525 nm for 160 s).
The IC50 of CC(C)C[C@H](NC(=O)[C@H](CC(C)C)NC(=O)[C@H](Cc1c[nH]cn1)NC(=O)[C@H](CCC(=O)O)NC(=O)[C@H](CC(C)C)NC(=O)[C@H](Cc1c[nH]cn1)NC(=O)[C@H](CCC(=O)O)NC(=O)[C@H](CC(C)C)NC(=O)[C@H](CC(C)C)NC(=O)[C@H](Cc1c[nH]cn1)NC(=O)[C@H](CCC(=O)O)NC(=O)[C@@H](N)CC(C)C)C(=O)N[C@@H](CCC(=O)O)C(=O)N[C@@H](Cc1c[nH]cn1)C(N)=O is reported as over 100 µM (cell growth or viability, MTT; pH 7.4).
With COc1cc(C(c2c(C)nn(-c3ccccc3)c2O)c2c(C)nn(-c3ccccc3)c2O)cc(OC)c1OC the IC50 was 22.9 µM (cell growth or viability, MTT; 48 h).
The IC50 of CCCCCCCCc1ccc(C(=O)N[C@@H](CO)C(=O)N[C@H](C(=O)N[C@@H](C)C(=O)N[C@H](C(=O)O)[C@@H](C)CC)[C@@H](C)OP(=O)(O)O)cc1 is reported as 128 µM (cell growth or viability, MTT; 72 h).
For C[C@H]1O[C@@H](O[C@H]2CC[C@@]3(C)[C@H](CC[C@@H]4[C@@H]3C[C@@H](O)[C@]3(C)[C@@H](C5=CC(=O)OC5)CC[C@]43O)C2)C[C@H](O)[C@@H]1O[C@@H]1O[C@H](CO)[C@@H](O)[C@H](O)[C@H]1O, the IC50 was 0.16 µM (cell growth or viability, MTT; 48 h).
